Measured values from different studies.
Numbered parts are unrelated; each lists some results of a single study.

Study 1
Target: RNA binding protein fox-1 homolog 2, RRM domain, GST-SBP tag (RBFOX2, Homo sapiens, UniProt O43251-10, residues 100-194)
Method: RNA Bind-n-Seq
Molecule type: RNA
Sample: in vitro
Concentration: 365 nM
Setting: natural RNA segment, single round, ends assumed
Baseline: no-protein control
Direction: higher = stronger binding
Construct (chain): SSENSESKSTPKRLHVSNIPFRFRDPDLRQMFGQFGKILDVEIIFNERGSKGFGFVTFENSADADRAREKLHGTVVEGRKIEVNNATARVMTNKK
Under “RBNS enrichment (R)”, `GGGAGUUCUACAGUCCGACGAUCGAAGUUUUGUAGGACAUUCCUUCUAGUCACUGCGGACUCCUCACGAAUGCACACAGGUCUUCAGGGAGUUUGACUGUCCUUACCCAGAGUCCUCUCUGAUGCAGCUGACCUGGAAUUCUCGGGUGCCAA` is recorded as 0.806.
`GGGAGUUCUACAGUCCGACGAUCAAUUUAGUUCAUCUUUCUUUAAAAGAACAUUAAAUGUAACCAUUUUGUCAGAUCCAUGUAUUUUGGAGCAUAAAAUGUAUGCUGUUGUGACCAAUAAAUAUAAAAUAUGGUGGAAUUCUCGGGUGCCAA` — result for “RBNS enrichment (R)”: 0.613.
`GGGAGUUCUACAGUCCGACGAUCUUGAUCUUGGAGUGUGCAGUGGCCCUUCUACCCUGCACCUGACCUCAUGAUCCCCUCCACCUGCACUGGUGUGCAUUACUGAAGCAAGGGUCCUGUGGACAUCUUGCAUUUGGAAUUCUCGGGUGCCAA` — result for “RBNS enrichment (R)”: 0.219.
Under “RBNS enrichment (R)”, `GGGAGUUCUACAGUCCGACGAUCAUUACGAAAAUAUGCUACUCUGAUGUGUUAUGGUUCCUGAAUUUCUUUUCUUUCUCACCCUCUUUGACCCAGAUUUUAUAGAGCGAGUUUCUCAACCUCUGCACAGUUGAUGGAAUUCUCGGGUGCCAA` is recorded as 0.691.
`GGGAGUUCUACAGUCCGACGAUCCCAGCAUCCCAGUGAAGUUCGUCCAGCUCCAGUUAGGUGGAUUCUGGAGUUCGGAGAGGGUUUAAAGUUUGGCUGAAAUAGCACCUCAAGUGGGGUUUAGUUUUAUUUUUUGGAAUUCUCGGGUGCCAA`: “RBNS enrichment (R)” 1.3.
For `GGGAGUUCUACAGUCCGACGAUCCUUUCCUAUUUAAAACAGGUUAGAUUUUAAAAUAGAGCUUUGUAUUGUGUAAUGGUUUUAUAUAUUAGCUUUGUAUAAGCUUUCAUGUAAGAGUCAUAUUUUUUGGCUUUUGGAAUUCUCGGGUGCCAA`, “RBNS enrichment (R)” read 0.753.
`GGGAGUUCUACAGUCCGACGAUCAUGGACCCUUCUCCUGGGGCAUUUGUUUUGUUUUCAUAAUAAAAAGCAAAAAAAAAAAAAAAAAAAAGACUGUUUUUUUUUUUUGCAUUUUCCUGUGCUUUCUGUGGGGGUGGAAUUCUCGGGUGCCAA` — result for “RBNS enrichment (R)”: 1.27.
`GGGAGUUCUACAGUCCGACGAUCACCCCUCCGUGCCUCAGCUUUUUCCCCACAGACACCUACCUCACAGGGGCAUUGAGAAAAAAAAAAUGAAGGCAUUUUACAGUCUCUAAACAUCUUUAAGUGCCAUGAGUUGGAAUUCUCGGGUGCCAA` — result for “RBNS enrichment (R)”: 0.658.
Under “RBNS enrichment (R)”, `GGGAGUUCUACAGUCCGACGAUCACCAAGUGGCAGACCUGUGGGCUUCAGCCUCGGGGCCGGGGCAUGCCUGCCACCCCCUGACAAAAACAGGUUCCACAGUGCUACCCUUGCUUCCUGCCCCUUGAGGUGGGUGGAAUUCUCGGGUGCCAA` is recorded as 0.289.
Under “RBNS enrichment (R)”, `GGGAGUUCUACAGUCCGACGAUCGUUUGUUGGACUUAAACGACGAUUUGCUGCUGUGAACCCAGCAGGGUCGCCUCCCUCUGCAUCGGCCAAAUUGGGGAGGGCAUGGAAGAUCCAGCGGAAAGUUGAAAAUAUGGAAUUCUCGGGUGCCAA` is recorded as 3.17.
For `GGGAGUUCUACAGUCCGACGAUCAGACAAAGAAACAAAUUCCUAUGACCAAAUUGCUUGCCUACAGUUCCCUGCAGUAAUUGUAUGAUCUCACCCAGUGUGCAAUUUGUGAAAAUGAACCAAAUGUCAUUACUUGGAAUUCUCGGGUGCCAA`, “RBNS enrichment (R)” read 0.514.

Study 2
Target: Histone acetyltransferase KAT6A, winged helix 2, GST fusion (KAT6A, Homo sapiens, UniProt Q92794, residues 85-181)
Method: protein binding microarray
Molecule type: double-stranded DNA, one strand shown
Sample: in vitro
Concentration: not given
Setting: 8-mer, flanks averaged, mean of 2 arrays, mostly near background
Baseline: not given
Direction: higher = stronger binding
Construct (chain): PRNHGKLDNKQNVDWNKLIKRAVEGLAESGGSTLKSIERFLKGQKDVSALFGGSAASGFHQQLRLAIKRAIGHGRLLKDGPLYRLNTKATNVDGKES
For `GCAAGCCC`, the E-score was 0.0378.
With `AAATCGCG` the E-score was -0.00446.
With `GACAATAA` the E-score was -0.0846.
`AGATGAAC` has an E-score of 0.0772.
With `AATCCTTG` the E-score was 0.0175.
For `AGAGTGTC`, the E-score was 0.152.
`AATCGCAC` has an E-score of 0.0422.
For `CCGGAAAG`, the E-score was 0.0483.
For `AAGAAGCG`, the E-score was -0.12.
The E-score of `AGTGCTGA` is reported as -0.129.
`ATCAGAAT` gave an E-score of -0.00938.
`GCAGCCTA` has an E-score of -0.0278.
For `TAACGCAA`, the E-score was 0.0247.

Study 3
Target: RING finger protein unkempt homolog, zinc fingers 1-6, GST-SBP tag (UNK, Homo sapiens, UniProt Q9C0B0, residues 30-357)
Sequence of UniProt Q9C0B0 (30-357, looked up): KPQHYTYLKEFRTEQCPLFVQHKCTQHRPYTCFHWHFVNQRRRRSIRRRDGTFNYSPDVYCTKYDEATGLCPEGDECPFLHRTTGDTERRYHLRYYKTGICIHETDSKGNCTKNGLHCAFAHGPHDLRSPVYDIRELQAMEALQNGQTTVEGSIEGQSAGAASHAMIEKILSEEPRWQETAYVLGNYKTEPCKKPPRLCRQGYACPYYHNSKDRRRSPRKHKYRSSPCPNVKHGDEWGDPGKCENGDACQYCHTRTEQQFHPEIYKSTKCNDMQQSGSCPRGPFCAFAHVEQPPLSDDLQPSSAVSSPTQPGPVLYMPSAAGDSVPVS
Method: RNA Bind-n-Seq
Molecule type: RNA
Sample: in vitro
Concentration: not given
Setting: RNA with constant flanks, human-mouse chimeric sites, ends assumed
Baseline: input RNA pool
Direction: higher = stronger binding
`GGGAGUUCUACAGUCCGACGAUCUUGAAAACUGAUUCAAGUAAGUUUGAGUAUCACAAUGUUAGCUUUCUAAUUCCACACAAGUACUUGGUUUUUACAGUUUAUAAUCUGACAUCACCCCCCGUUUAUAAGUAAAGAGCAACUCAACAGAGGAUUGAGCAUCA` gave a bound/input enrichment of 0.952 ratio.
With `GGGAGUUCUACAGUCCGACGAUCUCCCAAAUCCAGCAGCUAGAAGGAGCCUUGAGACAAAGCCUGGAAAUACAGGGAAGGCGAUAACAUUGUAAAUUGGUUUACAUUUUUUCCCCCUGUGGAUUUUUCUAGAGGUCAUAGUGCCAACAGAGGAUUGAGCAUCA` the bound/input enrichment was 0.478 ratio.
`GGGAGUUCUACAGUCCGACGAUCUCUGGUCACACUCGUGUGUAUGGUGUUUGCUUUGUGGAUACUUCACUGGGCAAGUUUUUCAUCGGCCAGUUUUCGGAUGACCGCCACUGUUCGAGAUUUAGGACGCUAGUGGCUCACUAUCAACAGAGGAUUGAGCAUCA` gave a bound/input enrichment of 0.219 ratio.
The bound/input enrichment of `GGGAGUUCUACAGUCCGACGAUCAAAUCGUGUGUGUCCAAUAUUGAAAGUGCUUUAUCUACACUCCAGUAUGUAAGCAGCAUAGUAGUUUCUUUAGAGAAUAGGUCUGCCAUUGUAAAGUACAAUGCAAGCUUAGUCACUCCACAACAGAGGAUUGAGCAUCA` is reported as 1.82 ratio.
For `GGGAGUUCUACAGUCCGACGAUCUUCAAAGAAAAGGGCAGCUGUGUCAUUUCAUAAGUAACUCUGGGGGAGGGAAAUUCUAACUAGUUUGUUAAUUUUCCCCCAAAUGAAGCCAAAGUGUGUGUUGAAGAACUGAGAAAAAAUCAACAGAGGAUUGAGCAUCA`, the bound/input enrichment was 0.862 ratio.
`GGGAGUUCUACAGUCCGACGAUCGAUCCACAGUGGUCUGAGGAGCAACUCAUUGCUGCAAAAUUCUGUUUUGCUGGACUUGUUAUAGGGCAGACUGAAGUGGAUAUCAUGAGUCAUGCCACACAAGCUAUUUUUGAAAUUCUGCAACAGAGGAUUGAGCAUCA` gave a bound/input enrichment of 0.181 ratio.
For `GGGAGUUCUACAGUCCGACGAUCUCUUAACUUAUUCAUUUAACUUAUUUUUAUAGCUAGAUAAAUAUUGUUAGUCUUAGAGAGUAGUUCACAUCUUUACAGAAGCAUGCCCUCCCUGUCCAUUUGUCUUAUAACAUGACCCAGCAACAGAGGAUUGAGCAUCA`, the bound/input enrichment was 5.35 ratio.
The bound/input enrichment of `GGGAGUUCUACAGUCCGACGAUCAUUGUUGAAGCGAAUCCACUUUUAGAAGCAUUUGGAAAUGCAAAGACUGUUCGCAACAAUAAUAGCAGUCGAUUUGGGAAAUUUGUAGAAAUUCAUUUUAAUGAAAAGAGUUCGGUUGUUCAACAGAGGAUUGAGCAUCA` is reported as 0.641 ratio.
The bound/input enrichment of `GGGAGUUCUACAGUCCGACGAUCAGAUUCCCCCUCCUGAGACCUCCUCCGAAGUUGGAGUCUCUUAUAGAUGCCUCAUCCCCUGUUAGCGUUUUAGUUUGGACCACACAACCUUGGACAAUUCCCGCCAACCAGGCAAUUUGCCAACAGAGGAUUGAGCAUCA` is reported as 2.43 ratio.

Further values, each from its own experiment
The fold induction of `PhoQ, residues 284 288 289 292 302 303 ASVMEA` is reported as 3.85 (PhoP, residues 12 14 15 18 19 NQFFI (Escherichia coli, UniProt P23836); Sort-seq, refers to: YFP reporter; E. coli; PhoQ-PhoP variant library, together with: 10 µM Mg2+; baseline: high Mg2+ state, higher = stronger signaling).

Repeated from above (study 2):
With `GACAATAA` the E-score was -0.0846.
`AGATGAAC` has an E-score of 0.0772.
With `AATCCTTG` the E-score was 0.0175.
For `AGAGTGTC`, the E-score was 0.152.
